Assay results collected from several papers.
Compare with care: the assays were run in different laboratories.
ABL1 M351T: Tyrosine-protein kinase ABL1 (ABL1, Homo sapiens, UniProt P00519, M351T)
ABL1: Tyrosine-protein kinase ABL1 (ABL1, Homo sapiens, UniProt P00519)
ABL1 E255K phosphorylated: Tyrosine-protein kinase ABL1, phosphorylated (ABL1, Homo sapiens, UniProt P00519, E255K)

CS(C)(=O)=Nc1ccc(-c2ccc(-c3nc4cc(O[C@@H]5CO[C@H]6[C@@H]5OC[C@H]6O)[nH]c4cc3F)cc2)cc1  inhibition (ABL1 M351T; enzyme activity, inhibitor; 10 µM): -21%
CCOC(=O)[C@](CC)(CCCSCCOCCOCCNC(=O)c1ccc(-c2c3ccc(=N)c(S(=O)(=O)O)c-3oc3c(S(=O)(=O)O)c(N)ccc23)c(C(=O)O)c1)NC(=O)c1ccc(C2CC2)c(Cc2ccc(F)cc2)n1  inhibition (ABL1; enzyme activity, inhibitor; 10 µM): 13%
CC(C)[C@H]1NC(=O)C[C@H]2/C=C/CCSSC[C@@H](NC1=O)C(=O)N[C@H](Cc1cccc3ccccc13)C(=O)NCC(=O)O2  inhibition (ABL1 (Homo sapiens, UniProt P00519, E255K); enzyme activity, inhibitor; 10 µM): -4.8%
N[C@H](C(=O)N1CCCC1)C1CCN(c2nccc3c(-c4ncc(Cl)cc4Cl)cccc23)CC1  inhibition (ABL1; kinase activity, inhibitor; 10 µM, together with: ATP 1 mM): -3.2%
CCOC(=O)[C@@H]1Cc2c(cc([N+](=O)[O-])cc2[N+](=O)[O-])[C@H](O)[C@]12C(=O)Nc1ccc(Br)cc12  remaining binding (ABL1 E255K phosphorylated; binding, competition with immobilised ligand; 0.1 µM): 60%
C[C@H](NCc1ccc(-c2ccc(C(F)(F)F)cc2)cc1)C(N)=O  inhibition (ABL1 E255K phosphorylated; cell-free assay, competition with immobilised ligand; 1 µM): 0%
Nc1ccc(/C=C/C(=O)N2CCc3c(oc4c(-c5ccc(F)cc5)cc(-c5ccc(C(=O)N6CCC(F)(F)CC6)cn5)cc34)C2)cn1  remaining binding (ABL1 E255K phosphorylated; binding, competition with immobilised ligand; 1 µM): 76%
O=C1NC(=O)c2c1c1cc(F)c[n+]3c1c1c2c2cc(O)ccc2[n]1[Ru-4]312([N]=C=S)[S+]3CC[S+]1CC[S+]2CC3 (centres unmarked)  remaining activity (ABL1 M351T; enzyme activity; 100 nM, human enzyme, together with: 10 µM ATP; baseline: untreated): 95%

For quick reference, copied from above:
CS(C)(=O)=Nc1ccc(-c2ccc(-c3nc4cc(O[C@@H]5CO[C@H]6[C@@H]5OC[C@H]6O)[nH]c4cc3F)cc2)cc1  inhibition (ABL1 M351T; enzyme activity, inhibitor; 10 µM): -21%
